Results collected from several papers.
Parts stem from different laboratories: compare values within a part only. Positions count from the first letter of the parent shown.

Sample 1
Target: Fragile X messenger ribonucleoprotein 1, C-terminal low-complexity region (Fmr1, Mus musculus, UniProt P35922)
Method: RNA Bind-n-Seq
Molecule type: RNA
Sample: in vitro
Concentration: 200 nM
Setting: whole 134-nt RNA, ends assumed
Together with: 150 mM LiCl
Reference: input library
Reading: higher = stronger binding
Library: 7-deaza-guanosine replaces G
Constant ends, left off below: GGGAGUUCUACAGUCCGACGAUC … UGGAAUUCUCGGGUGUCAAGG
Sequence	log2 enrichment
CAAUGGGAAUGGACCAAAGAGUUUCAGGGAAACUCCAGUAUAUUCCAGAGUCAGAUCUAAGCUCCAGGCACGCCUGAAGAUGUGUUGCUA	-0.292
CCUCAAGUCCUGUGCUACACAUCGUAUGUACCGAAUCGGAAAGGUGGAAAGGAAAGUAUUAUGUUACGCCGUUCGGAUCUGCACUUCCAG	0.155
UUAAAACAUGGCAACUUGUAAUUGUUUUCUUUCUUAGGAACAUCAUUCAUGGCAGUGAUUCAGUAAAAAGUGCUGAAAAAGAAAUCAGCC	-1.02
CAAGUCCUGUGCUACACAUCGUAUGUACCGAAUCGGAAAAAAAGGUUUGGAAAGGAAAGUAUUAUGUUACGCCGUUCGGAUCUGCACUUC	-2.08
UACAGGAGCUUCCUGGGACUGACCUGCCUGAUGCAAAUUUCUACUCGGACGGAAGACUUCAUCAUUGACACCCUCGAGCUUCGAAGUGAC	-0.592
AGUCCUGUGCUACACAUCGUAUGUACCGAAUCGGGAAAAAGGAAAAAGGGGAAAAAGGAAAGUAUUAUGUUACGCCGUUCGGAUCUGCAC	-0.911
GUCCUGUGCUACACAUCGUAUGUACCGAAUCGGUUUUUUUGGUUUUUGGAAAAAAAGGAAAGUAUUAUGUUACGCCGUUCGGAUCUGCAC	-2.3
UCCUGUGCUACACAUCGUAUGUACCGAAUCAAAUUUUUUUAAAUUUAAACCCCCCCAAAAAAGUAUUAUGUUACGCCGUUCGGAUCUGCA	2.03
CUCAAGUCCUGUGCUACACAUCGUAUGUACCGAAUCGGGGUGGGGUGGGUGGGGAAAGUAUUAUGUUACGCCGUUCGGAUCUGCACUUCC	-0.184
UGGGAGGUGGAUUUUGUUUAUUUUUUUAGCUCAUUUCCAGGGGUGGGAAUUUUUUUUUAAUAUGUUUCAUGAAUAAAGUUGUUUUUGAAA	-0.108
AGUCCUGUGCUACACAUCGUAUGUACCGAAUCGGGGUUUUUGGGGUGGGGAAAGGGGAAAGUAUUAUGUUACGCCGUUCGGAUCUGCACU	-0.253

Sample 2
Target: RING finger protein unkempt homolog, zinc fingers 1-6, GST-SBP tag (UNK, Homo sapiens, UniProt Q9C0B0, residues 30-357)
Method: RNA Bind-n-Seq
Molecule type: RNA
Sample: in vitro
Concentration: not given
Setting: RNA with constant flanks, human and mouse sites, ends assumed
Reference: input RNA pool
Reading: higher = stronger binding
Constant ends, left off below: GGGAGUUCUACAGUCCGACGAUC … CAACAGAGGAUUGAGCAUCA
Target sequence (chain): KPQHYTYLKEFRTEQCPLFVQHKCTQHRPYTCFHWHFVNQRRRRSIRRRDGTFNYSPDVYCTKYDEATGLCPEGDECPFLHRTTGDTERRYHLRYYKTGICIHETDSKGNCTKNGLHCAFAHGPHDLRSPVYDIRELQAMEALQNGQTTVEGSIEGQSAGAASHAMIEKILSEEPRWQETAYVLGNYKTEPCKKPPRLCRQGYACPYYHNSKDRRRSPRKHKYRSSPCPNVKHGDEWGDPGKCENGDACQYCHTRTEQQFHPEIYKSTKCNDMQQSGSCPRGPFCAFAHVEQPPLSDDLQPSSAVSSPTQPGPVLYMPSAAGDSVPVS
Sequence	bound/input enrichment
CUCUCUUCCCCCCUUUUUGAGUUGUUGGGCAGUUCUUAUUUCUUGCUUGCUUUUCGGUUUCUUGCUGUUGUUGGGUGUUUUUUUUGUUUGUUUGUUUGUUUGUUUGUUCUCGCUUUUUUU	1.48 ratio
UUUGGACAUCGGUUACAGGAAAACUUUUCCUUAGAUCUUCUCAAAACUGCAUUUGUUAAUAGCUGCUAUAUUAAAAGUGAGGAGGCCAAACGCCAACAACUUGGGAUAGAGAAAGAAGCU	1.15 ratio
AUUGCCUCCAGUGUUACCUUGGACUGAGCCAGAAUGUGAUUUUCCUGAUGAAAAAGACUCAUACUGGGAAUUCUAGGGCUGCCAAAUCAUUUUAUGUCCUAUAUACUUGACACUUUCUCC	0.214 ratio
AGAACUGACUCUCUUCCGUGGAAGAGAUGAACUGAGGAGAACCACCUCUUUUUUAUAGAUGACUUUAUUUCUAAAUUAUGACCAAAAGAUAUUUUGCUAUUUCUUUCUUUAUAUAUGGAC	3.97 ratio
AUGCUCGGAUGUAAGAAGCCAAUAGGAAAACCAGCCACUGCAAAACUAUAACAAUAAUGGAGCAGUUGUAGAAAACACAGUUCCAUAGUGACAGUCACAAAGGACUUACUCUGCCACAAA	2.13 ratio
CUGGUGUGCCAGGAGAGUACUAAAUUUAAGAAUGUUUGGACAACUCAUUCCAAGUCACCUAUAGCCUAUGAGAGAGGAAGAAUAUAUUUUGACAAUUACCGGUGCUGUGUCAGCAGUGUU	1.86 ratio
CGGAGGGUCAUUAGCUUUGGCUCAAGAUCCUACAGAAGAUGAAGAAAUAGUGGAAGAUUCAAUAAUUGAAGAUGAAGAUGAUGAAGCUGAAGUAGAAGAAGAUGAACCCACAGAUUUGGC	0.474 ratio
UCAGACAUCUACGUGUGCAUGAUCUCCUAUGCACACAACGUGGCGGCCCAGGGCAAGUACAUAGCUAUUGCCAGCACUACUGUGGAGACCACGGACCCUGAAAAGGAGGUGGAGCCGGCU	0.0869 ratio
AGGGGCAAAAUUCUUAAUGUACGGGAAGCUUCUCAUAAACAGAUCAUGGAAAAUGCUGAAAUAAAUAAUAUUAUUAAAAUAGUUGGUCUACAAUAUAAGAAAAGUUACGAUGAUGCAGAA	1.42 ratio
AGUGGGGGCUCAGGAGCCAAGCCCUCAGACACAGCAUCGGAAGCUACUCGUCCAGCUACCUUGAAUCGCUUUUCUGCUCUUCAACAAACAUUACCCGCAGAGAACACAGAUAACAGACGU	0.164 ratio
GAAUCUUCUGACAAUGAAGGUAGGCGGACAACGAGGAGAUUGCUGUCACGCAUAGCUUCUAGCAUGUCAUCUACUUUUUUUUCACGAAGAUCUAGUCAGGAUUCCUUGAAUACAAGAUCA	0.0931 ratio

Sample 3
Target: CCNE1, cyclin fold, Cln2 fusion (human)
Method: yeast growth competition, sequencing
Sample: yeast
Setting: weak parent motif
Reference: not given
Reading: higher = stronger binding
Starting sequence: DOT1L docking peptide (human); SEAKRRIVFTITT
Change	normalised enrichment score
SEAKRRIVATITT [F9A]	0.261
SEAKRAIVFTITT [R6A]	0.277
SEAKRRIVFTIAT [T12A]	0.713
SEAKRRIVFAITT [T10A]	0.373
AEAKRRIVFTITT [S1A]	0.541
SEAKRRIVFTATT [I11A]	0.486

Sample 4
Target: ABI1, truncated, D143A, DHFR fusion (Arabidopsis thaliana)
Method: DHFR PCA, deep sequencing
Sample: yeast
Setting: methotrexate growth selection, single substitutions
Together with: (+)-ABA 2500 µM
Reference: wild-type fitted maximum
Reading: higher = stronger binding
Starting sequence: PYL1, truncated, DHFR fusion (Arabidopsis thaliana); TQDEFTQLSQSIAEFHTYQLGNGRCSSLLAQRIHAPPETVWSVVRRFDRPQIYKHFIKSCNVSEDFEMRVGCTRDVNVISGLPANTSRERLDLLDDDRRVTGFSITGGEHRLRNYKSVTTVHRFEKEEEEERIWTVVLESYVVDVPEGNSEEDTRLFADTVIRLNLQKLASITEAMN
Change	relative binding score [%]
K116V	89.1
P83I	24.7
I57T	84.1
E147S	94.2
R113D	100
F66I	94.3
Q2L	103
E131H	94.9
M176S	97.8
R111C	79.9
V100P	-19.2
R74V	-1.25
E89W	-14.9
R49A	92.9

Sample 5
Target: Prothrombin, mature alpha-thrombin (F2, Homo sapiens, UniProt P00734)
Method: aptamer microarray, sandwich
Molecule type: DNA with 2'F-ANA
Sample: in vitro
Concentration: 200 nM
Setting: whole 15-mer aptamer, many near background
Together with: Cy3 exosite-II aptamer, 400 nM
Reading: higher = stronger binding
Sequence: GGTTGGTGTGGTTGG
Modification	mean fluorescence intensity [a.u.]
2'F-ANA at 1 2 3 4 6 7 8 9 10 11 12 14 15	53.5
2'F-ANA at 5 9 12 13 14 15	43.3
2'F-ANA at 1 2 6 10 13 15	48.9
2'F-ANA at 1 3 4 7 8 12 13 14	107
2'F-ANA at 1 2 4 5 7 11 12 14	47.1
2'F-ANA at 1 2 3 4 5 9 10 12 13	46.8
2'F-ANA at 2 3 4 5 6 8 9 10 13 15	51.2
2'F-ANA at 1 2 6 8 9 10 13	49.5
2'F-ANA at 5 7 8 9 11 12 13	94.4
2'F-ANA at 1 8 9 12 13 14	95.2
2'F-ANA at 1 2 3 4 5 6 9 11 13	50.8
2'F-ANA at 1 2 3 4 7 8 11	210
2'F-ANA at 1 4 6 7 9 10 12 13 14	60

Mixed results
Substance	target	assay	test system	conditions	scale	quantity	result
PhoQ, residues 284 288 289 292 302 303 SSLVEF	PhoP, residues 12 14 15 18 19 TPWLV (Escherichia coli, UniProt P23836)	Sort-seq, refers to: YFP reporter	E. coli	PhoQ-PhoP variant library, together with: 10 µM Mg2+	reference: high Mg2+ state, higher = stronger signaling	fold induction	1.69

Repeated from above (sample 2):
Sequence	bound/input enrichment
AGAACUGACUCUCUUCCGUGGAAGAGAUGAACUGAGGAGAACCACCUCUUUUUUAUAGAUGACUUUAUUUCUAAAUUAUGACCAAAAGAUAUUUUGCUAUUUCUUUCUUUAUAUAUGGAC	3.97 ratio
AUGCUCGGAUGUAAGAAGCCAAUAGGAAAACCAGCCACUGCAAAACUAUAACAAUAAUGGAGCAGUUGUAGAAAACACAGUUCCAUAGUGACAGUCACAAAGGACUUACUCUGCCACAAA	2.13 ratio
CUGGUGUGCCAGGAGAGUACUAAAUUUAAGAAUGUUUGGACAACUCAUUCCAAGUCACCUAUAGCCUAUGAGAGAGGAAGAAUAUAUUUUGACAAUUACCGGUGCUGUGUCAGCAGUGUU	1.86 ratio
CGGAGGGUCAUUAGCUUUGGCUCAAGAUCCUACAGAAGAUGAAGAAAUAGUGGAAGAUUCAAUAAUUGAAGAUGAAGAUGAUGAAGCUGAAGUAGAAGAAGAUGAACCCACAGAUUUGGC	0.474 ratio
UCAGACAUCUACGUGUGCAUGAUCUCCUAUGCACACAACGUGGCGGCCCAGGGCAAGUACAUAGCUAUUGCCAGCACUACUGUGGAGACCACGGACCCUGAAAAGGAGGUGGAGCCGGCU	0.0869 ratio
